{"data": "Published values of several laboratories", "note": "Values joined by “and” are separate records of one study, mostly repeats; a detail may differ. ± gives the spread as reported."}
{"SMILES": "Cc1cc(O)cc(O)c1C(=O)c1c2c3c(c(O)cc(C)c3oc1=O)C(=O)c1c(O)cc(O)cc1-2", "system": "Caco-2", "conditions": "50 µM, 3 h, pH 7.4", "endpoint": "Papp B→A", "result": "0.138 ×10⁻⁶ cm/s"}
{"SMILES": "CC(C)c1cnc(-c2cc(Cl)ccc2F)cc1Nc1ccncc1C(=O)NC(CO)CO", "test": "monotherapy, measured: diarrhoea", "system": "human patients", "conditions": "oral, dose not given, grade 1, phase I A", "endpoint": "patients with treatment-related adverse event", "result": "7.1%"}
{"SMILES": "CCCC[C@H](NC(=O)CNC(=O)CNC(=O)CN1CCN(CC(=O)O)CCN(CC(=O)O)CCN(CC(=O)O)CC1)C(=O)N[C@H]1CC(=O)NCCCC[C@@H](C(N)=O)NC(=O)[C@H](Cc2c[nH]c3ccccc23)NC(=O)[C@H](CCCNC(=N)N)NC(=O)[C@@H](Cc2ccccc2)NC(=O)[C@H](Cc2c[nH]cn2)NC1=O [copper-64 labelled]", "system": "female C57 mouse, B16/F1 melanoma", "conditions": "intravenous, 0.037 MBq, 2 h", "how to read": "baseline: tumour over blood", "endpoint": "uptake ratio", "result": 5.05}
{"SMILES": "COc1cc(NC(C)=O)c2c(c1O)-c1c(OC)c(OC)cc3c1C(C2)N(C)CC3 (stereo not drawn)", "system": "rat liver homogenate", "conditions": "50 µg/mL, 40 d, -20 °C, long-term storage", "endpoint": "remaining compound", "result": "87.5 ± 0.2%"}
{"SMILES": "COC(=O)C(c1ccccc1Cl)N1CCC(SCC(=O)c2cccc(OC)c2)C(=CC(=O)O)C1 (mixture of isomers)", "system": "feline EDTA plasma", "conditions": "room temperature", "endpoint": "storage stability time", "result": "≥ 1 weeks"}
{"SMILES": "CCCCCCCCCCCCCCCC(=O)N[C@@H](CCC(=O)NCCCC[C@H](NC(=O)[C@H](C)NC(=O)[C@H](C)NC(=O)[C@H](CCC(N)=O)NC(=O)CNC(=O)[C@H](CCC(=O)O)NC(=O)[C@H](CC(C)C)NC(=O)[C@H](Cc1ccc(O)cc1)NC(=O)[C@H](CO)NC(=O)[C@H](CO)NC(=O)[C@@H](NC(=O)[C@H](CC(=O)O)NC(=O)[C@H](CO)NC(=O)[C@@H](NC(=O)[C@H](Cc1ccccc1)NC(=O)[C@@H](NC(=O)CNC(=O)[C@H](CCC(=O)O)NC(=O)[C@H](C)NC(=O)[C@@H](N)Cc1cnc[nH]1)[C@@H](C)O)[C@@H](C)O)C(C)C)C(=O)N[C@@H](CCC(=O)O)C(=O)N[C@@H](Cc1ccccc1)C(=O)N[C@H](C(=O)N[C@@H](C)C(=O)N[C@@H](Cc1c[nH]c2ccccc12)C(=O)N[C@@H](CC(C)C)C(=O)N[C@H](C(=O)N[C@@H](CCCNC(=N)N)C(=O)NCC(=O)N[C@@H](CCCNC(=N)N)C(=O)NCC(=O)O)C(C)C)[C@@H](C)CC)C(=O)O", "system": "healthy humans, plasma", "conditions": "concentration not given", "how to read": "baseline: compound over Victoza", "endpoint": "AUC(0-last) ratio", "result": "112%"}
{"SMILES": "C=CC(=O)Nc1cc(Nc2nccc(-c3cn(C4CC4)c4ccccc34)n2)c(OC)cc1N(C)CCNC", "test": "radio-HPLC", "system": "human male, feces", "conditions": "oral, 110 mg, 96 to 240 h, sample holds 16.61% dose", "how to read": "baseline: dose", "endpoint": "excreted amount", "result": "3.8%"}
{"SMILES": "CC[C@@H](C)[C@@H](NC(=O)[C@@H](C)NC(=O)[C@@H](CCCCN)NC(=O)[C@@H](CC(C)C)NC(=O)[C@@H](CC(C)C)NC(=O)[C@H](NC(=O)[C@@H](CCCCN)NC(=O)[C@@H](CC(C)C)NC(=O)[C@@H](CCCCN)NC(=O)[C@@H](CCCCN)NC(=O)[C@@H](CCCCN)NC(=O)[C@@H](CCCCN)NC(=O)[C@@H](C)NC(=O)[C@@H](CCCCN)NC(=O)[C@@H](CO)NC(=O)[C@@H](Cc1ccccc1)NC(=O)[C@H](NC(=O)[C@@H](CCCCN)NC(=O)[C@@H](CC(C)C)NC(=O)[C@@H](Cc1ccccc1)NC(=O)[C@@H](CO)NC(=O)[C@@H](CCCCN)NC(=O)[C@@H](Cc1c[nH]c2ccccc12)NC(=O)[C@@H](CCCCN)NC(C)=O)[C@H](C)O)[C@H](C)O)C(=O)N[C@H](CO)C(=O)N[C@H](CCCCN)C(N)=O", "test": "circular dichroism", "system": "50% trifluoroethanol buffer", "conditions": "5 °C", "how to read": "baseline: reference peptide in TFE", "endpoint": "helical content", "result": "97%"}
{"SMILES": "NCC(=O)N1CCC[C@H]1C(=O)N1C[C@H](O)C[C@H]1C(=O)O", "test": "potentiometric titration", "conditions": "37 °C, MA3 complex, together with: Fe(III)", "endpoint": "log beta", "result": 28.8}
{"SMILES": "CONC(=O)/C=C/c1cccc(S(=O)(=O)Nc2ccccc2)c1", "system": "human, mild liver dysfunction, plasma", "conditions": "intravenous, 400 mg/m^2 belinostat, cycle 1 day -7, geometric mean", "how to read": "baseline: metabolite over belinostat", "endpoint": "AUC(0-inf) metabolic ratio", "result": 0.574}
{"SMILES": "COc1cc(N(C)CCN(C)C)c(NC(=O)CCSCC(N)C(=O)O)cc1Nc1nccc(-c2cn(C3CC3)c3ccccc23)n1 (stereo not drawn)", "test": "radio-HPLC, co-eluting peaks pooled", "system": "human, feces", "conditions": "0 to 240 h, sample holds 81.99% dose", "how to read": "baseline: dose", "endpoint": "excreted amount", "result": "1.89%"}
{"SMILES": "C[C@H](Oc1cc(-c2cnn(C3CCN(CC[18F])CC3)c2)cnc1N)c1c(Cl)ccc(F)c1Cl", "test": "PET imaging", "system": "nude mouse, heart", "conditions": "iv, 10 min post injection", "endpoint": "tracer uptake", "result": "3.6 ± 0.8 %ID/cc"}
{"SMILES": "CCCCCCCCS(=O)(=O)CC(=O)C(F)(F)F", "test": "19F NMR", "system": "chloroform", "endpoint": "hydrate fraction", "result": "100%"}
{"SMILES": "CCN(CC)c1ccc2c(-c3ccccc3C(=O)OCCOCCOCC[18F])c3ccc(=[N+](CC)CC)cc-3oc2c1", "system": "rat, skin", "conditions": "60 min", "endpoint": "tissue uptake", "result": "0.24 ± 0.03 %ID/g"}
{"SMILES": "COc1ccc(-c2csc(N/N=C(\\C)c3cc(O)cc(O)c3)n2)cc1", "test": "LC-MS/MS", "system": "rat plasma", "conditions": "3.75 ng/mL, freeze-thaw 5 cycles at 20 °C", "endpoint": "concentration after storage", "result": "3.39 ng/mL"}
{"SMILES": "COC(=O)c1cc(NC(=O)[C@H](CCCCN)NC(=O)c2cc(NC(=O)[C@H](CCCCN)NC(=O)c3cc(NC(=O)[C@H](CCCCN)NC(=O)c4cc(NC(=O)[C@@H](N)CCCCN)ccc4OC)ccc3OC)ccc2OC)ccc1OC", "test": "UV-vis λmax shift", "system": "TBS", "conditions": "pH 7.4, monomer-hexamer fit, together with: NaCl 0.15 M", "endpoint": "association midpoint concentration", "result": "0.37 mM"}
{"SMILES": "Cc1ccc(OCC(=O)N(Cc2cccs2)c2ccn[nH]2)cc1", "system": "female Sprague-Dawley rat, plasma", "conditions": "oral, 10 mg/kg, single dose", "endpoint": "half-life", "result": "1.46 h"}
{"SMILES": "N=C(N)NCCC[C@@H]1NC(=O)[C@H](Cc2c[nH]c3ccccc23)NC(=O)[C@@H](CC2CCCCC2)NC(=O)[C@@H]2CCCN2C(=O)[C@@H](NC(=O)CCc2ccccc2)CCCNC1=O", "system": "C57BL/6J mice, brain", "conditions": "intraperitoneal, 1 mg/kg, two-compartment model", "endpoint": "apparent total clearance (CL/F)", "result": "1.27 ng/(min·ng/g)"}
{"SMILES": "O=C(CCc1ccc(CNC(C(=O)OC2CCCC2)C2CCCCC2)cn1)NO (stereo not drawn)", "system": "human, plasma", "conditions": "oral, 20 mg once daily, day 1, geometric mean", "endpoint": "AUC(tau)", "result": "85.7 ng·h/mL"}
{"SMILES": "NCCCC(=O)OCC(=O)c1ccc(O)c(C(F)(F)F)c1", "test": "pump-probe transient absorption", "system": "10% acetonitrile in water", "endpoint": "singlet lifetime", "result": "3.3 ps"}
{"SMILES": "CC(C)[C@H](NC(=O)[C@@H]1CCCN1C(=O)[C@H](CCCNC(=N)N)NC(=O)[C@H](CS)NC(=O)[C@H](Cc1c[nH]c2ccccc12)NC(=O)[C@H](CCCNC(=N)N)NC(=O)[C@@H](Cc1ccccc1)NC(=O)[C@H](Cc1c[nH]cn1)NC(=O)[C@H](CCC(=O)O)NC(=O)[C@H](CS)NC(=O)[C@H](CS)NC(=O)CNC(=O)[C@@H]1CC(=O)N[C@@H](CCCNC(=N)N)C(=O)NCC(=O)N[C@@H](CC(=O)O)C(=O)N[C@H](Cc2ccc(O)cc2)C(=O)N1)C(N)=O [technetium-99m labelled]", "system": "C57 mouse, female, B16/F1 melanoma", "conditions": "intravenous, 0.037 MBq, 0.5 h", "how to read": "baseline: tumour over lung", "endpoint": "tumour to tissue ratio", "result": 1.26}
{"SMILES": "N#CCc1cccc(Cl)c1-c1ccc2[nH][11c](=O)[nH]c2c1", "test": "PET", "system": "Sprague-Dawley rats, whole brain", "endpoint": "brain uptake", "result": "~0.2 SUV"}
{"SMILES": "C[C@H](NC(=O)COC(=O)[C@H](C)NC(=O)CO)C(=O)O", "system": "water", "conditions": "pH 4, 25 °C", "endpoint": "depolymerization half-life", "result": "146 h"}
{"SMILES": "COc1cc([O-])c(C=NCCCN(C)CCN(C)CCCN=Cc2c([O-])cc(OC)cc2OC)c(OC)c1.[67Ga+3]", "system": "rat", "conditions": "intravenous, 2 h", "how to read": "baseline: heart over blood", "endpoint": "tissue uptake ratio", "result": "6.4 ± 1.3"}
{"SMILES": "CO[C@H]1/C=C/O[C@@]2(C)Oc3c(C)c(O)c4c(c3C2=O)C2=NC3(CCN(CC(C)C)CC3)NC2=C(NC(=O)/C(C)=C\\C=C\\[C@H](C)[C@H](O)[C@@H](C)[C@@H](O)[C@@H](C)[C@H](OC(=O)c2cccnc2)[C@@H]1C)C4=O", "system": "CD-1 mice, plasma", "conditions": "oral", "how to read": "baseline: metabolite AUC over parent AUC", "endpoint": "deacylated metabolite exposure", "result": "0.01%"}
{"SMILES": "CC(=O)N[C@H](CCCCN)C(=O)N[C@H](CC(C)C)C(=O)N[C@H](CCCCN)C(=O)N[C@H](CO)C(=O)N[C@H](CC(C)C)C(=O)N[C@H](CC(C)C)C(=O)N[C@H](CCCCN)C(=O)N[C@@H](C(=O)N[C@H](CC(C)C)C(=O)N[C@H](CO)C(=O)N[C@H](CCCCN)C(=O)N[C@H](C)C(=O)N[C@H](CCCCN)C(=O)N[C@H](C)C(=O)N[C@H](C)C(=O)N[C@H](CCCCN)C(=O)N[C@H](CC(C)C)C(=O)N[C@H](CCCCN)C(=O)N[C@@H](C(=O)N[C@H](CC(C)C)C(=O)N[C@H](CC(C)C)C(=O)N[C@H](CCCCN)C(=O)N[C@H](C)C(=O)N[C@H](CC(C)C)C(=O)N[C@H](CO)C(=O)N[C@H](CO)C(N)=O)[C@H](C)O)[C@H](C)O", "system": "human erythrocytes", "conditions": "18 h, pH 7.4, 37 °C, 50% hemolysis", "endpoint": "HC50", "result": "279 µg/mL"}
{"SMILES": "[11CH3]c1ccc2nc(C3CCC3)n(-c3ccc4[nH]ncc4c3)c2n1", "system": "ddY mouse, blood", "how to read": "baseline: 1 min over 60 min", "endpoint": "uptake ratio", "result": 2.9}
{"SMILES": "NC(=O)[C@H](Cc1ccccc1)N[11C](=O)OCc1ccccc1", "system": "male Wistar rats, plasma", "conditions": "intravenous, 5 min", "endpoint": "intact tracer", "result": "52% and 52.3%"}
{"SMILES": "Cn1c(=O)oc2ccc(-c3ccc(CC(C#N)NC(=O)C4CNCCCO4)c(F)c3)cc21 (stereo not drawn)", "system": "human", "conditions": "40 mg, single dose, fed", "endpoint": "tlag median", "result": "0 h"}
{"SMILES": "O=c1nc(NO)ccn1[C@@H]1O[C@H](CO)[C@@H](O)[C@H]1O", "test": "western blot, measured: CYP2C11", "system": "rats, CFA-induced arthritis, liver", "conditions": "oral, 80 mg/kg twice daily, 5 days", "how to read": "baseline: untreated arthritic rats", "endpoint": "protein level", "result": "0.9 fold"}
{"note": "Some of these lines once more:"}
{"SMILES": "C=CC(=O)Nc1cc(Nc2nccc(-c3cn(C4CC4)c4ccccc34)n2)c(OC)cc1N(C)CCNC", "test": "radio-HPLC", "system": "human male, feces", "conditions": "oral, 110 mg, 96 to 240 h, sample holds 16.61% dose", "how to read": "baseline: dose", "endpoint": "excreted amount", "result": "3.8%"}
{"SMILES": "CC[C@@H](C)[C@@H](NC(=O)[C@@H](C)NC(=O)[C@@H](CCCCN)NC(=O)[C@@H](CC(C)C)NC(=O)[C@@H](CC(C)C)NC(=O)[C@H](NC(=O)[C@@H](CCCCN)NC(=O)[C@@H](CC(C)C)NC(=O)[C@@H](CCCCN)NC(=O)[C@@H](CCCCN)NC(=O)[C@@H](CCCCN)NC(=O)[C@@H](CCCCN)NC(=O)[C@@H](C)NC(=O)[C@@H](CCCCN)NC(=O)[C@@H](CO)NC(=O)[C@@H](Cc1ccccc1)NC(=O)[C@H](NC(=O)[C@@H](CCCCN)NC(=O)[C@@H](CC(C)C)NC(=O)[C@@H](Cc1ccccc1)NC(=O)[C@@H](CO)NC(=O)[C@@H](CCCCN)NC(=O)[C@@H](Cc1c[nH]c2ccccc12)NC(=O)[C@@H](CCCCN)NC(C)=O)[C@H](C)O)[C@H](C)O)C(=O)N[C@H](CO)C(=O)N[C@H](CCCCN)C(N)=O", "test": "circular dichroism", "system": "50% trifluoroethanol buffer", "conditions": "5 °C", "how to read": "baseline: reference peptide in TFE", "endpoint": "helical content", "result": "97%"}
